Results collected from several papers.
Protocols differ between the studies behind these lines. ± marks the error that the study gave.
XIAP BIR3: E3 ubiquitin-protein ligase XIAP, BIR3 (XIAP, Homo sapiens, UniProt P98170)
UniProt P98170, sequence (whole entry, unmodified, looked up): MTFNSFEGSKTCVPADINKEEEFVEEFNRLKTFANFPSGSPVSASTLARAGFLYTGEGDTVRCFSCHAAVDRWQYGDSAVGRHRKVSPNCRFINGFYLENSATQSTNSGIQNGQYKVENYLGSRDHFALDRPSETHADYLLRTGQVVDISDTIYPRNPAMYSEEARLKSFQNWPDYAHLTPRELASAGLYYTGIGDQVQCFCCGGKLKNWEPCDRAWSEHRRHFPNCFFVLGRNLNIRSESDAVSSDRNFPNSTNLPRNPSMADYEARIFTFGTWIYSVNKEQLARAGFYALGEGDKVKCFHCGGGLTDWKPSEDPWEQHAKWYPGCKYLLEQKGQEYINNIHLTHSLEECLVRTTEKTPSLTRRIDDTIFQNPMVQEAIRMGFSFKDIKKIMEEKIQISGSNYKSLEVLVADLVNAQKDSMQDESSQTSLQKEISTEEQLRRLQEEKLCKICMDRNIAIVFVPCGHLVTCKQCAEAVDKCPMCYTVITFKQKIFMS
XIAP BIR1 domain: E3 ubiquitin-protein ligase XIAP, BIR1 domain (XIAP, Homo sapiens, UniProt P98170)

SMILES | target | read-out | method | temperature | measurement | result
Cc1ccc(C(=O)Nc2ccc(S(=O)(=O)O)c3cccc(S(=O)(=O)O)c23)cc1NC(=O)c1cccc([N+](=O)[O-])c1 | E3 ubiquitin-protein ligase XIAP, BIR1 domain (XIAP, Homo sapiens, UniProt P98170, D71A) | – | microscale thermophoresis | – | Kd | 537 ± 60 µM
CC(C)=CCCC1=C[C@H](c2c(O)cc3c(c2O)C(=O)C[C@@H](c2ccc(O)cc2O)O3)[C@@H](C(=O)c2ccc(O)cc2O)[C@H](c2ccc(O)cc2O)C1 | XIAP (Homo sapiens, UniProt P98170) | ligand displacement | FP | – | Ki | 34.3 µM
CN[C@@H](C)C(=O)N[C@@H](CCCCN)C(=O)N1CCC[C@H]1C(=O)N[C@@H](Cc1ccccc1)C(=O)O | E3 ubiquitin-protein ligase XIAP, BIR2 (XIAP, Homo sapiens, UniProt P98170) | ligand displacement | FP | – | Ki | 11.7 µM
O=C(Nc1cccc(C(=O)Nc2ccc(S(=O)(=O)O)c3cc(S(=O)(=O)O)cc(S(=O)(=O)O)c23)c1)Nc1cccc(C(=O)Nc2ccc(S(=O)(=O)O)c3cc(S(=O)(=O)O)cc(S(=O)(=O)O)c23)c1 | E3 ubiquitin-protein ligase XIAP, BIR1 domain (XIAP, Homo sapiens, UniProt P98170, R62S) | – | microscale thermophoresis | – | Kd | 1140 ± 202 µM
CC(C)[C@H](NC(=O)[C@H](C)NCC1CC1)C(=O)N1CCC[C@H]1C(=O)N[C@@H](Cc1ccccc1)C(N)=O | XIAP BIR3 | ligand displacement | – | – | IC50 | 1.5 µM
CN[C@@H](C)C(=O)N[C@H]1CN(C(=O)Cc2ccccc2)CC[C@H]2CC[C@@H](C(=O)NCc3ccccc3Br)N2C1=O | XIAP BIR3 | ligand displacement | FP | – | Ki | 1.49 µM
CC(C)[C@H](NC(=O)[C@H](C)NCC1CCCCC1)C(=O)N1CCC[C@H]1C(=O)N[C@@H](Cc1ccccc1)C(N)=O | XIAP BIR3 | ligand displacement | – | – | IC50 | 2 µM
CN[C@@H](C)C(=O)N[C@H]1CN(C(=O)Cc2ccccc2)CC[C@H]2CC[C@@H](C(=O)NCc3ccccc3F)N2C1=O | XIAP BIR3 | ligand displacement | FP | – | Ki | 0.532 µM
N[C@H]1CCCCNC(=O)[C@H](Cc2ccccc2)NC(=O)[C@@H]2CCCN2C(=O)[C@@H](N)CCCCNC(=O)[C@H](Cc2ccccc2)NC(=O)[C@@H]2CCCN2C1=O | XIAP BIR3 | ligand displacement | FP | – | Ki | 27 µM
CN[C@@H](C)C(=O)N[C@H]1CN(C(=O)Cc2ccccc2)CC[C@H]2CC[C@@H](C(=O)NCc3ccc(-c4ccccc4)cc3)N2C1=O | XIAP BIR3 | ligand displacement | FP | – | Ki | 15.3 µM
O=C(Nc1ccc(S(=O)(=O)O)c2cccc(S(=O)(=O)O)c12)c1cccc([N+](=O)[O-])c1 | XIAP BIR1 domain | – | microscale thermophoresis | 24 °C | Kd | 8190 ± 1800 µM
CN[C@@H](C)C(=O)N[C@H]1CN(C(=O)Cc2ccccc2)CC[C@H]2CC[C@@H](C(=O)NCc3cccc(F)c3)N2C1=O | XIAP BIR3 | ligand displacement | FP | – | Ki | 1 µM
CCOC(=S)Nc1cccc(C(=O)Nc2cc(C(=O)Nc3ccc(S(=O)(=O)O)c4cccc(S(=O)(=O)O)c34)ccc2C)c1 | XIAP BIR1 domain | – | microscale thermophoresis | 24 °C | Kd | 6810 ± 2000 µM

Repeated from above:
SMILES | target | read-out | method | temperature | measurement | result
CC(C)[C@H](NC(=O)[C@H](C)NCC1CCCCC1)C(=O)N1CCC[C@H]1C(=O)N[C@@H](Cc1ccccc1)C(N)=O | XIAP BIR3 | ligand displacement | – | – | IC50 | 2 µM
